# Assay results collected from several papers.
# Parts stem from different laboratories: compare values within a part only. Positions count from the first letter of the parent shown.

# Block 1 — technique: RNA Bind-n-Seq; molecule type: RNA; sample: in vitro; concentration: 200 nM; setting: whole 134-nt RNA, ends assumed; together with: 150 mM LiCl; baseline: input library; reading: higher = stronger binding; library: 7-deaza-guanosine replaces G
# Target: Fragile X messenger ribonucleoprotein 1, C-terminal low-complexity region (Fmr1, Mus musculus, UniProt P35922)
# Shared flanks, not repeated: GGGAGUUCUACAGUCCGACGAUC … UGGAAUUCUCGGGUGUCAAGG
Strand,log2 enrichment
GAAAUACCAUCGGAAGACGAUGGGACGGUGCUGCUCUCCACGGUUACAGCCCAGUUUCCAGGGGCGUGUGGGCUUCGCUACAGGAAUCCA,-0.359
AGUCCUGUGCUACACAUCGUAUGUACCGAAUCGGGAAAAAGGGUGGGUUUUUUUGGGAAAGUAUUAUGUUACGCCGUUCGGAUCUGCACU,-2.23
UCAAGUCCUGUGCUACACAUCGUAUGUACCGAAUCGGUGGUUUUUGGAAAAAGGAAAGUAUUAUGUUACGCCGUUCGGAUCUGCACUUCC,-0.647
UGUGCUACACAUCGUAUGUACCGAAUCGGGGCCCCCCCGGCCCCCCCGGGGCCCCCCCGGGGAAAGUAUUAUGUUACGCCGUUCGGAUCU,-0.453
UCAAGUCCUGUGCUACACAUCGUAUGUACCGAAUCGUGUGUGUGUGUGUGUGUGUAAAGUAUUAUGUUACGCCGUUCGGAUCUGCACUUC,-0.816
GUGCUACACAUCGUAUGUACCGAAUCGGGGUUUUUUUGGGGUUUUUUUGGGGUUUUUUUGGGGAAAGUAUUAUGUUACGCCGUUCGGAUC,2.11
GCAGGAAGUAAAAACAAAUGGAAAUGCUUCGGAUAGUAGCAGGGGUGGGGGUUGCUAAGGAAAGGGUGGGAUGGGAGUGGGUAAAGAGUU,1.21
AGUCCUGUGCUACACAUCGUAUGUACCGAAUCAAAUUUAAACCCAAACCCCCCCAAAAAAGUAUUAUGUUACGCCGUUCGGAUCUGCACU,1.14
CUGUGCUACACAUCGUAUGUACCGAAUCGGGUUUUUUGGGGUUUUUUGGGGUUUUUUGGGGAAAGUAUUAUGUUACGCCGUUCGGAUCUG,1.4
GUCCUGUGCUACACAUCGUAUGUACCGAAUCGGGGCCCCCGGGCCCCCGGCCCCCGGGGAAAGUAUUAUGUUACGCCGUUCGGAUCUGCA,-1.71
CAAGUCCUGUGCUACACAUCGUAUGUACCGAAUCGGUUUUUUUGGUGGUUUUUGGAAAGUAUUAUGUUACGCCGUUCGGAUCUGCACUUC,-1.06

# Block 2 — technique: protein-binding microarray; molecule type: double-stranded DNA, one strand shown; sample: in vitro; concentration: 250 nM; setting: 60-bp whole probe; together with: salmon DNA 0.4 mg/ml; baseline: random background probes; reading: higher = stronger binding; shared flanks, not repeated: GCCTAGCAC … GTCTTGATTCGCTTGACGCTGCTG
# Target: Interferon regulatory factor 5, full length, phosphomimetic (IRF5, Homo sapiens, UniProt Q13568-2, residues 1-514, K96S/S451D/S453D/S456D/S462D)
Strand,log fluorescence [z-score]
TCATCATTTTCTCTGTTACTGTGCTAG,1.55
GACGATTTCAGTATCGACACGTGCTAG,4.41
TGTGGTCTGTTTCTGATATGGTGCTAG,0.682
TTAGGTATTCTTTTCCTTTAGTGCTAG,0.56
GACGATATCAGTTACGAGACGTGCTAG,1.32
TTAGGATCCGGTTTCGGTTAGTGCTAG,9.01
GGCGGTTTCCTTTTCCTGACGTGCTAG,1.31
TTAGGTATCATTCTCCTTTAGTGCTAG,1.3
GACGGTTTCGGGAATGGGGACGTGCTA,5.27
AAATATTTACCTCTCACGCAGTGCTAG,0.275
GAAGATTTCAATTAGAAAAAGTGCTAG,1.12
GACGATATCTGACTGGAGACGTGCTAG,0.294
TTAGGTCTCGGACTGGGTTCGTGCTAG,-0.372
TTAGAACTGCGTCTCGATTAGTGCTAG,-0.155
TTAGGTCTCGGTCTCGGTCAGTGCTAG,0.915
TTAGGTTCCCTTTTCCTTAAGTGCTAG,0.723
TTAGGTTTCGGGTATCGGTGAGTGCTA,9.61
TTTCTTTTCTTTTCTTTTTTGTGCTAG,6.54
TTAGGCCTGGGTCTCGGTTAGTGCTAG,-0.223
TTAGGTTTCGATATCGGTTAGTGCTAG,10.4
GACGACATCGGGTTTCGAGACGTGCTA,1.63
TTAGATTTCAGTTTCGACTAGTGCTAG,8.8
TTAGTTTTCGGTATCGGTTAGTGCTAG,10.7
TCAGCTTTCCAATTCTCACTGTGCTAG,0.692
GACGGTATCCTACAGCTGACGTGCTAG,-0.232

# Block 3 — target: CCND1, cyclin fold, Cln2 fusion (human); technique: yeast growth competition, sequencing; sample: yeast; setting: weak parent motif; baseline: not given; reading: higher = stronger binding
# Starting sequence: GMNC docking peptide (human); KNAKRNLSSEFAN
Substitution,normalised enrichment score
N2H,0.432
K4F,0.214
F11A,-0.0209
F11K,0.0749
A3H,0.743
A12T,0.517
S8D,0.697
N2W,0.477
R5Y,0.115
R5M,0.329
K4R,0.794
A3E,-0.0172
K4M,0.57
E10P,-0.0971
E10K,-0.227
A12C,0.596
A12I,0.674
E10A,-0.0913
L7I,0.468
N6V,-0.019
E10L,-0.203
N2V,0.0243
S9K,0.674
R5E,0.254
N2E,0.638

# Block 4 — technique: RNA Bind-n-Seq; molecule type: RNA; sample: in vitro; concentration: 365 nM; baseline: no-protein control; reading: higher = stronger binding
# Target: RNA binding protein fox-1 homolog 2, RRM domain, GST-SBP tag (RBFOX2, Homo sapiens, UniProt O43251-10, residues 100-194)
# Setting: natural RNA segment, single round, ends assumed
# Shared flanks, not repeated: GGGAGUUCUACAGUCCGACGAUC … UGGAAUUCUCGGGUGCCAA
# Construct (chain): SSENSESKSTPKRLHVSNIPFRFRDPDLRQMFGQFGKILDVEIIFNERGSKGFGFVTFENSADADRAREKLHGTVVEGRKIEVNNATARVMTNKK
Strand,RBNS enrichment (R)
GCCAGAAAAUUUCACUAGGUCAGUAAUUUAAACCUUGGAUCUUCAAAAAAUAAAAUAAUGUGAAGCAAAACCAACUAAAAAGUGAUUCUUGCACAUGAACUGUCACAUGU,0.555
UUACUGUUGCUUUGGUGUGUCUUGAAGUUUGAUUGAUUAUUUUUGGUCAUUGAGUUCUUAGUGUAGUUUGCUAGAUGAUUAUUAAGAUUCUUUUGUGUCUGACACUUGUG,2.87
UCUUCCAAAAGUCACUUGAUUUAAGGGUUAUCCACAAGUUGUGCUUAUUUUGAUAUAGCAUUUGUUUCCUAAAUGUUUACUAAUCACUUUAUGCCAAAUGUCUUGCAGAU,0.285
CCAAAGUAAAACAUUAGGUCAGGCAUGGUGGCUCAGGCCUGUAAUCCCAGCAUUUUGGGAGGCUGAGGCAAGUGGAUAACUUGAGGUCAUGAGUUCGAAACCAGCCUGGC,1.65
UCAAAUUAAAGUAGGGCACAUGCCAAGGAGGUUCUCACCUCCCUAAAGAAGGGACUUGAAUUUUAGGGACUUUAAUUCACCCUUUCCUUCAAUCCAGCUUUCCCCCUUCU,0.388
UCCCUGGCGUCCUUCUGAAACUACACCAUGUGGCCCCUUGGAACUAAUCCCAAGUCAAUGCGUGUAUCCCCUGCCAGGCUGCCUCAGCCUCCCUCCCCAUUACCCACUCU,0.539
AAAGGUAUAUACUUUUAGGAGCCUAAAAAACAUUUCCAAACUAGCCCAAGCUAUCUCAACUACAGGAGCGGAGGGGGACGAAUGAUUGUGAACACAAAGUCUGACUUGAA,0.344
AAAAGAAAGGUACAAUGGAAACACUCAUAGACUGACACCAUUAUCAUUAACUAAGAAUAAUAAAUUUGCUCCUAUCCUGGGUCACGUGCCACGGUAAGAUGUAUAGUAUG,0.27
GAGCUUUGCCUCGCCUCCGCCUGCGCUCCCCUCCAGGGUCCUUCUGCUGGCUGCGGACUCGGCCCACCACUGCUGUCUGACGCUUUUCUUCCUGCCCCCUCUGAGGCCUG,0.364
AGAGUCUCCCCAUUUUUUUUAACGCAACCCUUUCCCCUUUUUCCUACCCCACAGCUCUGUUCCAUGUAAGUUGCCAACAGUUUCACUGAACAGUGGGGUAUGUGAUGGUU,0.568
GUAAAAUGACGGAAUCAGCAUGUGAGUAAGGAUCGCUUUCCUCAAAGGUUACCCUCCCACCCCCGCUAUUUCUCAUGAUUCGUCAAUAUCUAGGUUAGGUAUUGAAAGAU,5.32
UAAAGAUCACCCGUUGUAUUCACCCCACACCCAGGGCUAGUAUAAACAUGACCCUGGGCUUCUGUACCACACUAGAAUUCAUGUGAGAAAGCUAAAAUGGUGGUCUUCUC,0.205

# Repeated from above (block 3):
Substitution,normalised enrichment score
R5Y,0.115
R5M,0.329
K4R,0.794
A3E,-0.0172
K4M,0.57
